Measurements gathered from unrelated publications.
Parts stem from different laboratories: compare values within a part only. Changes are numbered by the printed parent chain.

Set 1
Target: CCNE1, cyclin fold, Cln2 fusion (human)
Method: yeast growth competition, sequencing
Medium: yeast
Notes: strong parent motif
Relative to: not given
Direction: higher = stronger binding
Quantity: normalised enrichment score
Starting sequence: viral docking peptide; KGVKRKLFAEDSS; partner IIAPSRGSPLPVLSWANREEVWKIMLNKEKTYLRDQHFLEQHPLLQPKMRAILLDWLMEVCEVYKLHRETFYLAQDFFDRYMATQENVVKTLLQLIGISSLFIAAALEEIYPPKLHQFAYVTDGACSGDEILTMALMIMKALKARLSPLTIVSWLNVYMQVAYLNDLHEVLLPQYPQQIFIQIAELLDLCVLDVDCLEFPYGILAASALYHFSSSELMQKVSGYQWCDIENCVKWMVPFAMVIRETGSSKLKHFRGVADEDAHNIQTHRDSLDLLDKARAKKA
F8C: 0.454
F8T: 0.0488
R5L: 0.599
E10L: 6.71
K4A: 6.74
R5M: 0.798
A9E: 7.37
G2M: 6.92

Set 2
Target: tungstate, free oxyanion
Method: microfluidic competitive inhibition
Medium: in vitro, cell-free expressed
Tested at: not given
Notes: derived from inhibition constants, unchanged parent 2230 nM
Direction: lower = stronger binding
Quantity: oxyanion analog dissociation constant
Starting sequence: PafA, mature enzyme, eGFP fusion (Elizabethkingia meningoseptica, UniProt Q9KJX5); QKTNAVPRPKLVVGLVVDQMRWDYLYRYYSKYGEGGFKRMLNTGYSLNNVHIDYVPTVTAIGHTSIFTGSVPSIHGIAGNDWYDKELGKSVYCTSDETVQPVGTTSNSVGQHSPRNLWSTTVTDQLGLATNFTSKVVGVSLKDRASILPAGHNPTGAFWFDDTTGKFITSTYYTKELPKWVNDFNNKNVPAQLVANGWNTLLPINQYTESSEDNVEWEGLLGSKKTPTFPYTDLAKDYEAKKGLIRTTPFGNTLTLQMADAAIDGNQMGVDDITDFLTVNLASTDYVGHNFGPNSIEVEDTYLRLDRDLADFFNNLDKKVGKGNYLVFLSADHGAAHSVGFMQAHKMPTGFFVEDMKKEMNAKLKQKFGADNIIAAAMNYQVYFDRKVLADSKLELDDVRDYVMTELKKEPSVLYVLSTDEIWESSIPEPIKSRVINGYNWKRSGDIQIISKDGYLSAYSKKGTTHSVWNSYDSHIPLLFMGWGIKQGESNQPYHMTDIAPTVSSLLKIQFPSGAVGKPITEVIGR
D183G: 2.25 µM
V516G: 1.95 µM
N4G: 1.98 µM
W22V: 1.78 µM
Y92V: 45.6 µM
T164G: 1.48 µM
Y415G: 1.01 µM
W217V: 850 nM

Set 3
Target: UDP-N-acetylglucosamine--peptide N-acetylglucosaminyltransferase 110 kDa subunit (OGT, Homo sapiens, UniProt O15294)
Sequence of UniProt O15294 (whole entry, looked up): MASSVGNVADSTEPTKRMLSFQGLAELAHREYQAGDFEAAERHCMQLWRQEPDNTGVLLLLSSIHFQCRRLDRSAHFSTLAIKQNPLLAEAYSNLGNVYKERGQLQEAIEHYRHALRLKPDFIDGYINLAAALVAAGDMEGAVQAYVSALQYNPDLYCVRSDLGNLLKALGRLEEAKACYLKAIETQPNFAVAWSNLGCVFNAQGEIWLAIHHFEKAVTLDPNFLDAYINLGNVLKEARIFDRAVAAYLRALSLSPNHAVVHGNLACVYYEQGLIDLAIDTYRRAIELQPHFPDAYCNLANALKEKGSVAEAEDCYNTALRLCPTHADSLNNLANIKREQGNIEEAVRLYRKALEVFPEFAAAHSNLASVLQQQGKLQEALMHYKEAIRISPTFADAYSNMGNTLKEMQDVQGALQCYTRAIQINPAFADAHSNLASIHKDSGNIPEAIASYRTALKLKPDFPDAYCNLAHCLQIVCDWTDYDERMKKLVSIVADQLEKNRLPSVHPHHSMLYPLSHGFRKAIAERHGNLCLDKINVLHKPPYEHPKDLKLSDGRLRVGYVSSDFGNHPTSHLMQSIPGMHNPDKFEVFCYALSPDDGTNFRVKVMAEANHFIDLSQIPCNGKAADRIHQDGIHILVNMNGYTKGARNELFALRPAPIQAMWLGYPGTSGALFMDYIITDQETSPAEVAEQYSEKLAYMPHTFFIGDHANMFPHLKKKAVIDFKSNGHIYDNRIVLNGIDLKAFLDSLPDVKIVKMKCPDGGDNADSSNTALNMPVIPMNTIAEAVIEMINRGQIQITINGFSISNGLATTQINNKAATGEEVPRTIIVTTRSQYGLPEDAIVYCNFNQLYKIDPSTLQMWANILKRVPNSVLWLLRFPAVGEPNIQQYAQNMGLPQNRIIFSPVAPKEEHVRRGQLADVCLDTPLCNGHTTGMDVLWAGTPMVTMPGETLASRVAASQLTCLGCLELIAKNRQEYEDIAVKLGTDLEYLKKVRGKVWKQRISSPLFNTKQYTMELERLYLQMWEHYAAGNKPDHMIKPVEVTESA
Read-out: binding
Method: phage display NGS
Molecule type: peptide
Tested at: concentration not given
Relative to: input library
Quantity: enrichment fold change
HLEQHMHHMIHKYAN: 3.21
HTKGFMHRIQHHYYF: 9.45
HQMPFAFHHDHPFVH: 4.91
TFEHWYWTDTTYKHH: 5.29
HPSHHHGHQNEYYV: 9.13
WMPVNYNGKHHSHTV: 59.3
QYLPQYQILPVIYSS: 2.32
TEVPPQYIIEYWKLD: 5.37

Mixed results
Nc1nc(=S)c2ncn([C@@H]3O[C@H](CO)[C@@H](O)[C@H]3O)c2[nH]1
inhibition (chymotrypsin; enzyme activity, inhibitor; 10 µM, with DTT): 7.6%

Excerpt of the above (set 2):
N4G: 1.98 µM
Y415G: 1.01 µM
V516G: 1.95 µM
